{"data": "Published values pooled from the literature", "note": "Numbered parts are unrelated; each lists some results of a single study. Positions count from the first letter of the parent shown."}
{"data": "Block 1", "target": "Histone acetyltransferase KAT6A, winged helix 1, GST fusion (KAT6A, Homo sapiens, UniProt Q92794, residues 1-85)", "method": "protein binding microarray", "molecule type": "double-stranded DNA, one strand shown", "sample": "in vitro", "concentration": "not given", "notes": "8-mer, flanks averaged, mean of 2 arrays, mostly near background", "reference": "not given", "reading": "higher = stronger binding", "Target sequence (chain)": "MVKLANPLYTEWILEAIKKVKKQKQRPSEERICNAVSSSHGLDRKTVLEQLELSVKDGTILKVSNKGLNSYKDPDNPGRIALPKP"}
{"Strand": "AAACCTTG", "E-score": -0.249}
{"Strand": "GCAAGTCC", "E-score": -0.132}
{"Strand": "CCTGGACC", "E-score": -0.238}
{"Strand": "GAGGTCGA", "E-score": -0.134}
{"Strand": "GCTATCCC", "E-score": "-3.5e-05"}
{"Strand": "CGGGCGCA", "E-score": 0.395}
{"Strand": "AAAGAGCT", "E-score": -0.121}
{"Strand": "ATCCCGTG", "E-score": 0.27}
{"Strand": "AGCGAAGG", "E-score": 0.046}
{"Strand": "AACATAAA", "E-score": -0.202}
{"Strand": "GACGCCTC", "E-score": -0.0183}
{"Strand": "CGCAAGAG", "E-score": 0.0934}
{"Strand": "CGTTTGTA", "E-score": -0.0372}
{"Strand": "AGGCCCGC", "E-score": 0.349}
{"Strand": "GACGCGCC", "E-score": 0.363}
{"Strand": "TAGCGGGA", "E-score": 0.244}
{"data": "Block 2", "target": "CCND3, cyclin fold, Cln2 fusion (human)", "method": "yeast growth competition, sequencing", "sample": "yeast", "notes": "weak parent motif", "reference": "not given", "reading": "higher = stronger binding", "starting sequence": "WEE1 docking peptide (human); HKTFRKLRLFDTP"}
{"Change": "K6N", "normalised enrichment score": 0.256}
{"Change": "T12H", "normalised enrichment score": 0.194}
{"Change": "F10V", "normalised enrichment score": 0.0498}
{"Change": "T12R", "normalised enrichment score": 0.0728}
{"Change": "R5F", "normalised enrichment score": 0.0358}
{"Change": "R5G", "normalised enrichment score": 0.00634}
{"Change": "H1M", "normalised enrichment score": 0.173}
{"Change": "L7V", "normalised enrichment score": 0.0666}
{"Change": "T3E", "normalised enrichment score": 0.0321}
{"Change": "K2Y", "normalised enrichment score": 0.0476}
{"Change": "D11E", "normalised enrichment score": 0.0887}
{"Change": "P13A", "normalised enrichment score": 0.113}
{"Change": "F10Y", "normalised enrichment score": 0.0515}
{"Change": "R8C", "normalised enrichment score": 0.201}
{"Change": "R8H", "normalised enrichment score": 0.0984}
{"Change": "F10T", "normalised enrichment score": 0.126}
{"Change": "K6R", "normalised enrichment score": 0.124}
{"Change": "F4G", "normalised enrichment score": 0.134}
{"Change": "F4H", "normalised enrichment score": 0.187}
{"data": "Block 3", "target": "UBE2V1 UBC core domain (UniProt Q13404)", "method": "yeast two-hybrid", "sample": "yeast", "notes": "mostly zero background", "reference": "not given", "reading": "higher = stronger interaction", "B1": "MKRN2 RING domain (UniProt Q9H000); chain FAFQASQDKVCSICMEVILEKASASERRFGILSNCNHTYCLSCIRQWRCAKQFENPIIKSCPECRVISEFVIPSV", "B2": "TRIM60 RING domain (UniProt Q495X7); chain ALVNLQEESSCPICLEYLKDPVTINCGHNFCRSCLSVSWKDLDDTFPCPVCRFCFPYKSFRR", "B3": "RLIM RING domain (UniProt Q9NVW2); chain SFGENDALKTCSVCITEYTEGNKLRKLPCSHEYHVHCIDRWLSENSTCPICRRAVLASGNRE", "B4": "DEF8 RING domain (UniProt Q6ZN54); chain AGRLGCSLTEIHTLFAKHIKLDCERCQAKGFVCELCREGDVLFPFDSHTSVCADCSAVFHRDCYYDNSTTCPKCARLSLRK", "Residues (chain)": "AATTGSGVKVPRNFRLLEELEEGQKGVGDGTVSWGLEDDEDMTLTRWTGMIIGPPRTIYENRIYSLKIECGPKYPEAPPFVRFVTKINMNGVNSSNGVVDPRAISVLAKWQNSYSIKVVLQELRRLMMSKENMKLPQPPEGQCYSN"}
{"Molecule": "B1 (MKRN2 RING domain)", "lacZ reporter activity": 0}
{"Molecule": "YPEEVDDDLICHICLQALLDPLDTPCGHTYCTLCLTNFLVEKDFCPMDRKPLVLQHCKK (LNX1 RING domain (UniProt Q8TBB1))", "lacZ reporter activity": 0}
{"Molecule": "B2 (TRIM60 RING domain)", "lacZ reporter activity": 0}
{"Molecule": "B3 (RLIM RING domain)", "lacZ reporter activity": 0}
{"Molecule": "B4 (DEF8 RING domain)", "lacZ reporter activity": 0}
{"Molecule": "RYRQMEERITCPICIDSHIRLVFQCGHGACAPCGSALSACPICRQPIRDRIQIF (MIB2 RING domain (UniProt Q96AX9))", "lacZ reporter activity": 0}
{"data": "Block 4", "target": "Phosphate system positive regulatory protein PHO4, full length, GST-tagged (PHO4, Saccharomyces cerevisiae, UniProt P07270, residues 1-312)", "method": "competition protein-binding microarray", "molecule type": "double-stranded DNA, one strand shown", "sample": "in vitro", "concentration": "2 µM", "notes": "whole 60-bp probe, lowest competitor level", "together with": "Cbf1 competitor, 0.05 µM", "reading": "higher = stronger binding", "constant ends, left off below": "… GTCTTGATTCGCTTGACGCTGCTG", "Residues (chain)": "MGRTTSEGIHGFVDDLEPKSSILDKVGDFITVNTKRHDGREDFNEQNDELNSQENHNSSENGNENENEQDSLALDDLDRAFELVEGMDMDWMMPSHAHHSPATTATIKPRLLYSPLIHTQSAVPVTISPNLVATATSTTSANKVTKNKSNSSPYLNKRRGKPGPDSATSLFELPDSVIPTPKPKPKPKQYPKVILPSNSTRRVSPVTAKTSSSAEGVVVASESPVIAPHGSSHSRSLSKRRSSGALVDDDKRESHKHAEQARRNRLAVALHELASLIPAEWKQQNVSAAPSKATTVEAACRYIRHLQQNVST"}
{"Strand": "TCACAAGATGATTGTCATGAAATTCTCTGTCTCTCC", "fluorescence intensity [a.u.]": 2970}
{"Strand": "AAATTACTAAGTTGAGACGTGGGTGACGCCGTATGA", "fluorescence intensity [a.u.]": 5640}
{"Strand": "CGTCCTAGTGATTGCGACGTGGGTGCCATGAGGAAG", "fluorescence intensity [a.u.]": 8500}
{"Strand": "TGCTCCGTTGACATCTTCGTGGGTACTCATATCACT", "fluorescence intensity [a.u.]": 5880}
{"Strand": "TGCGCAACAACTTACCACGTGTTTTTATGTCTAGAA", "fluorescence intensity [a.u.]": 19100}
{"Strand": "CTTTCCCGATCTTTTCACGTGTGGTTAGCACATTTG", "fluorescence intensity [a.u.]": 12300}
{"Strand": "GGCCAGATCAATCAGCTCGTGTGGATAGGTTAGGTT", "fluorescence intensity [a.u.]": 8720}
{"Strand": "TTTTTCTACAAAATGCACATGACAGGATGACCTTCC", "fluorescence intensity [a.u.]": 7670}
{"Strand": "TTCAACGCATTGAGACACATGGCTAACTACCCAGTA", "fluorescence intensity [a.u.]": 8620}
{"Strand": "ATGGCAACGAGGTCGCACACGCCAGACACCCAGACC", "fluorescence intensity [a.u.]": 7620}
{"Strand": "GTCTTGTCTCATTGCGCCGTGGGTGTCCCCACTTCA", "fluorescence intensity [a.u.]": 6040}
{"Strand": "CCTCGGAAAAACCTCCACGTGTTGGGTTATTCCGCC", "fluorescence intensity [a.u.]": 18200}
{"Strand": "CTTTCCCGATCTTGGTTTGTGGGTGTAGCACATTTG", "fluorescence intensity [a.u.]": 4840}
{"Strand": "GAAACGGGTGGGAATGACGTGGTAATCAATGAACTA", "fluorescence intensity [a.u.]": 4520}
{"Strand": "TGCGCAACAACTTGGCTCGTGGGTGTATGTCTAGAA", "fluorescence intensity [a.u.]": 10100}
{"Strand": "ATCATAACGGAGCGAACCGTGCCGAAGATGTCAAGA", "fluorescence intensity [a.u.]": 9030}
{"Strand": "GGATGCCCGAAATCCAACGTGCAAACTATTCTCGGG", "fluorescence intensity [a.u.]": 10500}
{"Strand": "CAACACAAAGTTCGTCACGTCATTTAGCTGATAACG", "fluorescence intensity [a.u.]": 4380}
{"Strand": "CGCTAATTTCCTACCCACGTGCTTTAAATAACAATT", "fluorescence intensity [a.u.]": 19500}
{"note": "Excerpt of the above (block 2):"}
{"Change": "F10Y", "normalised enrichment score": 0.0515}
{"Change": "L7V", "normalised enrichment score": 0.0666}
{"Change": "F10V", "normalised enrichment score": 0.0498}
{"Change": "T3E", "normalised enrichment score": 0.0321}
{"Change": "R8H", "normalised enrichment score": 0.0984}
{"Change": "K6R", "normalised enrichment score": 0.124}
{"Change": "F4G", "normalised enrichment score": 0.134}
